Results of several laboratories.
Lines come from different studies, so protocols differ. ± marks the error that the study gave.

Structure (SMILES)	assay	system	conditions	scale	endpoint	result
COc1ccc([C@@H]2CC(=O)c3c(O)cc(O[C@@H]4O[C@H](CO)[C@@H](O)[C@H](O)[C@H]4O[C@@H]4O[C@@H](C)[C@H](O)[C@@H](O)[C@H]4O)cc3O2)cc1O		Sprague-Dawley rat, male, lean, faeces	oral, 100 mg/kg, 24-36 h		faecal excretion	85.6 ± 84 ng
CN1Cc2cc(Cl)ccc2-n2c(nnc2C2CCN(c3cccc([18F])n3)CC2)C1		C57BL/6 mouse male, urinary bladder	intravenous, 3.7 MBq, 30 min		tissue uptake	15.3 ± 3.74 %ID/g
O=C1NC2(CC2)COc2ncc(F)cc2[C@H]2COCCN2c2ccn3ncc1c3n2		Sprague-Dawley rat, female, serum	oral, 5 mg/kg/day, end of recovery, 4-week subacute toxicity		serum hepatic lipase activity	3.3 ± 0.2 U/L
N=C(N)NCCC[C@H](NC(=O)[C@H](CCCNC(=N)N)NC(=O)[C@H](CCCNC(=N)N)NC(=O)[C@H](CCC(N)=O)NC(=O)[C@H](CCCNC(=N)N)NC(=O)[C@H](CCCNC(=N)N)NC(=O)[C@H](CCCCN)NC(=O)[C@H](CCCCN)NC(=O)[C@H](CCCNC(=N)N)NC(=O)CNC(=O)[C@H](Cc1ccc(O)cc1)NC(=O)[C@H](Cc1ccccc1)NC(=O)[C@H](Cc1ccccc1)NC(=O)[C@H](Cc1ccccc1)NC(=O)Cc1ccc2ccccc2c1)C(=O)O		C57BL/6 mice	intraperitoneal, 20 mg/kg, 48 h	direction not given	health score	5
CC[C@H](C)[C@H](NC(=O)[C@H](CCCCN)NC(=O)CNC(=O)[C@H](CC(C)C)NC(=O)[C@H](Cc1ccccc1)NC(=O)[C@H](CCCCN)NC(=O)[C@H](CO)NC(=O)[C@H](Cc1ccccc1)NC(=O)[C@H](Cc1c[nH]c2ccccc12)NC(=O)[C@H](CCC(N)=O)NC(=O)[C@@H](NC(=O)[C@H](Cc1ccccc1)NC(=O)CCCCCNC(=O)CN1CCN(CC(=O)O)CCN(CC(=O)O)CCN(CC(=O)O)CC1)C(C)C)C(=O)N[C@@H](CCC(=O)O)C(=O)N1CCC[C@H]1C(=O)N[C@@H](CC(=O)O)C(=O)N[C@H](C(=O)N[C@@H](CO)C(=O)N[C@@H](CCC(N)=O)C(=O)N[C@H](C(=O)N[C@@H](CCC(N)=O)C(=O)N[C@@H](CC(=O)O)C(=O)N1CCC[C@H]1C(=O)N[C@@H](CC(N)=O)C(=O)N[C@@H](CC(=O)O)C(=O)N[C@@H](CCC(N)=O)C(=O)N[C@@H](Cc1ccc(O)cc1)C(=O)N[C@@H](CCC(=O)O)C(=O)N1CCC[C@H]1C(=O)N[C@@H](Cc1ccccc1)C(=O)O)C(C)C)C(C)C [copper-64 labelled]	dynamic PET	mouse both sexes, CT26 tumour, checkpoint inhibitor-treated, tumour	intravenous, 100 µCi/mouse, 570 s		SUVmean	3.7 SUV
CC(C)C[C@@H](NC(=O)[C@@H](CCCNC(=N)N)NC(=O)[C@@H](Cc1c[nH]cn1)NC(=O)[C@@H](Cc1c[nH]c2ccccc12)NC(=O)[C@@H](Cc1c[nH]cn1)NC(=O)[C@@H](Cc1ccccc1)NC(=O)[C@H](NC(=O)[C@@H](Cc1ccc(O)cc1)NC(=O)CNC(=O)CNC(=O)CCOCCOCCOCCNC(=O)CN1CCN(CC(=O)O)CCN(CC(=O)O)CC1)[C@H](C)O)C(=O)N[C@H](CC(N)=O)C(=O)N1CCC[C@@H]1C(=O)O [gallium-68 labelled]		C57BL/6 mice, male	intravenous, 1.85 MBq, 60 min	reference: tumour over liver	tissue ratio	5.36 ± 1.1
CC(=O)NCCCC[C@@H]1NC(=O)[C@H](Cc2c[nH]c3c(C)cccc23)NC(=O)[C@H]([C@@H](C)O)NC(=O)[C@H](CC(N)=O)NC(=O)[C@@H](NC(C)=O)C(C)(C)SSC(C)(C)[C@@H](C(=O)N[C@@H](Cc2ccc(OCCN)cc2)C(=O)N[C@@H](Cc2ccc3ccccc3c2)C(=O)NC2(C(=O)N[C@@H](CCC(=O)O)C(=O)N[C@@H](CC(N)=O)C(=O)N[C@@H](Cc3cccnc3)C(=O)N(C)CC(N)=O)CCOCC2)NC1=O		cynomolgus monkey, blood	0.013 µM, 2 h		whole blood to plasma concentration ratio	0.79 ± 0.06
C#Cc1c(F)ccc2cc(O)cc(-c3ncc4c(N5CC6CCC(C5)N6C(=O)OC(C)OC(=O)CC(C)(C)C)nc(OC[C@@]56CCCN5C[C@H](F)C6)nc4c3F)c12 (stereo partly drawn)	chemical stability	simulated intestinal fluid	1 µM, 30 min		compound remaining	104%
N#[11C]c1ccc(-c2csc(NN=C3CCCC3)n2)cc1		C57BL/6 mice, male, brain	intravenous, 3 MBq, 5 min		radioactivity uptake	2.85 ± 0.38 %ID/g
CCCCCCCCCCCCCC(=O)N[C@@H](CCCNC(=N)N)C(=O)N[C@@H](Cc1c[nH]c2ccccc12)C(=O)N[C@@H](CCCCN)C(=O)N[C@H](C(=O)N[C@@H](Cc1ccccc1)C(=O)N[C@@H](CCCCN)C(=O)N[C@@H](CCCCN)C(=O)N[C@H](C(=O)N[C@@H](CCC(=O)O)C(=O)N[C@@H](CCCCN)C(=O)N[C@H](C(=O)NCC(=O)N[C@@H](CCC(N)=O)C(=O)N[C@@H](CC(N)=O)C(=O)N[C@H](C(=O)N[C@@H](CCCNC(=N)N)C(=O)N[C@@H](CC(=O)O)C(=O)NCC(=O)N[C@H](C(=O)N[C@H](C(=O)N[C@@H](CCCCN)C(=O)N[C@@H](C)C(=O)NCC(=O)N1CCC[C@H]1C(=O)N[C@@H](C)C(=O)N[C@H](C(=O)N[C@@H](C)C(=O)N[C@H](C(=O)N[C@H](C(=O)NCC(=O)N[C@@H](CCC(N)=O)C(=O)N[C@@H](C)C(=O)N[C@@H](C)C(=O)N[C@H](C(=O)N[C@H](C(N)=O)[C@@H](C)CC)[C@@H](C)O)C(C)C)C(C)C)C(C)C)C(C)C)[C@@H](C)CC)[C@@H](C)CC)C(C)C)[C@@H](C)CC)[C@@H](C)CC		mouse erythrocytes	32 µM, 1 h, 37 °C		hemolysis	~20%
C=CC(=O)Nc1cccc(Cn2ncc3cnc(Nc4cnn(CCOC)c4)nc32)c1		Sprague-Dawley rat male, serum	oral, 180 mg/kg, day 28, 28-day subacute toxicity		serum cholesterol	1.33 ± 0.31 mM
C=Cc1c(C)c2cc3nc(c(CC(=O)[O-])c4[n-]c(cc5nc(cc1[n-]2)C(C)=C5CC)c(C)c4C(=O)[O-])C(CCC(=O)[O-])C3C.[Cu+2].[Na+].[Na+].[Na+] (stereo not drawn)		Wistar rat, female	oral, 500 mg/kg daily, 28 days		haemoglobin	14.2 ± 0.79 g/dL
CC(C)[C@H](NC(=O)[C@@H](NC(=O)[C@H](CCCNC(=N)N)NC(=O)[C@H](CCCNC(=N)N)NC(=O)[C@H](CCCNC(=N)N)NC(=O)[C@H](CCC(N)=O)NC(=O)[C@H](CCCNC(=N)N)NC(=O)[C@H](CCCNC(=N)N)NC(=O)[C@H](CCCCN)NC(=O)[C@H](CCCCN)NC(=O)[C@H](CCCNC(=N)N)NC(=O)CN)[C@@H](C)O)C(=O)N[C@H](C(=O)N[C@@H](CO)C(=O)N1CCC[C@H]1C(=O)O)[C@@H](C)O		ICR mice, female, stomach	intranasal, 10 mg/kg daily, 4 weeks		organ weight	0.374 ± 0.076 g
CC(C)[C@@H]1NC(=O)CNC(=O)[C@H](CC(N)=O)NC(=O)[C@H](CCCNC(=N)N)NC(=O)[C@H](Cc2ccc(O)cc2)NC(=O)[C@H](C(C)C)NC(=O)[C@@H](NC(=O)[C@@H](NC(=O)[C@H](CC(N)=O)NC(=O)[C@H](Cc2c[nH]c3ccccc23)NC(=O)[C@H](C)NC(=O)[C@H](Cc2ccccc2)NC(=O)CNC(=O)[C@H](CCCCN)NC(=O)[C@H](Cc2ccccc2)NC(=O)[C@H](Cc2ccccc2)NC(=O)[C@H](CCCCN)NC(=O)OCC2c3ccccc3-c3ccccc32)C(C)C)CSSC[C@@H](C(=O)N[C@@H](Cc2c[nH]cn2)C(=O)N[C@@H](CCCNC(=N)N)C(=O)N[C@@H](CCCNC(=N)N)C(=O)N[C@@H](C)C(=O)N[C@@H](CC(N)=O)C(N)=O)NC(=O)[C@H](C(C)C)NC(=O)[C@H](CCCNC(=N)N)NC1=O		ICR mouse	ip, 10 mg/kg	direction not given	spasm score	0
COCC1CN(C2CCN(c3cc(OC)c(Nc4ncc(Br)c(Nc5ccc6c(c5P(C)(C)=O)OCCO6)n4)cc3C)CC2)C1		human patients	oral, 150 mg once daily		treatment-related deaths	0%
CCCCCCCCCCCCCCCC(=O)N[C@@H](CCC(=O)NCCOCCOCCC(=O)NCCOCCOCCC(=O)NCCCC[C@H](NC(=O)[C@H](CC(=O)O)NC(=O)[C@H](CC(C)C)NC(=O)[C@H](Cc1ccc(O)cc1)NC(=O)[C@H](CCCCN)NC(=O)[C@H](CO)NC(=O)[C@H](Cc1ccc(O)cc1)NC(=O)[C@H](CC(=O)O)NC(=O)[C@H](CO)NC(=O)[C@@H](NC(=O)[C@H](Cc1ccccc1)NC(=O)[C@@H](NC(=O)CNC(=O)[C@H](CCC(N)=O)NC(=O)[C@@H](CO)NC(=O)[C@@H](N)Cc1c[nH]cn1)[C@@H](C)O)[C@@H](C)O)C(=O)N[C@@H](CCCNC(=N)N)C(=O)N[C@@H](CCCNC(=N)N)C(=O)N[C@@H](C)C(=O)N[C@@H](CCC(N)=O)C(=O)N[C@@H](CC(=O)O)C(=O)N[C@@H](Cc1ccccc1)C(=O)N[C@H](C(=O)N[C@@H](CCC(N)=O)C(=O)N[C@@H](Cc1c[nH]c2ccccc12)C(=O)N[C@@H](CC(C)C)C(=O)N[C@@H](CC(C)C)C(=O)N[C@@H](CC(N)=O)C(=O)N[C@H](C(=O)NCC(=O)NCC(=O)N1CCC[C@H]1C(=O)N[C@@H](CO)C(=O)N[C@@H](CO)C(=O)NCC(=O)N[C@@H](C)C(=O)N1CCC[C@H]1C(=O)N1CCC[C@H]1C(=O)N1CCC[C@H]1C(=O)N[C@@H](CO)C(N)=O)[C@@H](C)O)C(C)C)C(=O)O		Sprague-Dawley rat, male	subcutaneous, 500 µg/kg once daily, 14 days		urea	4.02 ± 0.38 mmol/L
CSCC[C@H](NC(=O)CNC(=O)[C@H](CCCCN)NC(=O)[C@H](CC(C)C)NC(=O)[C@@H]1CCCN1C(=O)[C@H](CO)NC(=O)[C@H](Cc1c[nH]cn1)NC(=O)[C@H](Cc1c[nH]c2ccccc12)NC(=O)[C@H](CCCNC(=N)N)NC(=O)[C@H](CC(C)C)NC(=O)[C@H](CCCNC(=N)N)NC(=O)[C@H](Cc1c[nH]c2ccccc12)NC(=O)[C@H](CS)NC(=O)CCCCCNC(=O)CN1CCN(CC(=O)O)CCN(CC(=O)O)CCN(CC(=O)O)CC1)C(=O)O [copper-64 labelled]	PET imaging	BALB/c nude mice, kidney	intravenous, dose not given, 9 h, Huh-7 tumour-bearing		tissue uptake	9.35 ± 0.97 %ID/g
CCCC[C@H]1C(=O)N(C)[C@@H](CCCC)C(=O)N[C@@H](CCCNC(=O)CN2CCN(CC(=O)O)CCN(CC(=O)O)CCN(CC(=O)O)CC2)C(=O)N[C@H](C(=O)NCC(N)=O)CSCC(=O)N[C@@H](Cc2ccc(O)cc2)C(=O)N(C)[C@@H](C)C(=O)N[C@@H](CC(N)=O)C(=O)N2CCC[C@H]2C(=O)N[C@@H](Cc2c[nH]cn2)C(=O)N[C@@H](CC(C)C)C(=O)N(C)CC(=O)N[C@@H](Cc2c[nH]c3ccccc23)C(=O)N[C@@H](CO)C(=O)N[C@@H](Cc2c[nH]c3ccccc23)C(=O)N1C [gallium-68 labelled]		NOD/SCID mice, CHO-hPD-L1 xenograft, heart	60 min, added: blocking agent 50 µg co-injected		tissue uptake	4.21 ± 0.98 %ID/g
